Measured values from different studies.
Compare with care: the assays were run in different laboratories. Several values in a cell are separate wells, animals, samples, runs or records. Numbers after ± are the reported error.

| Compound | target or system | assay | test system | setting | scale | quantity | value |
| --- | --- | --- | --- | --- | --- | --- | --- |
| CC(C)C[C@H](NC(=O)C[C@H](O)[C@H](CC(C)C)NC(=O)[C@H](Cc1c[nH]cn1)NC(=O)CNC(=O)[C@@H](NC(=O)[C@H](C)NC(=O)[C@H](Cc1c[nH]c2ccccc12)NC(=O)[C@H](CCC(N)=O)NC(=O)[C@@H](Cc1ccccc1)NC(=O)COCCOCCNC(=O)CCC(C(=O)O)N1CCN(CC(=O)O)CCN(CC(=O)O)CCN(CC(=O)O)CC1)C(C)C)C(N)=O (stereo partly drawn) [lutetium-177 labelled] |  |  | female BALB/c nu/nu mice, lung | intravenous, 100 pmol, 4 h, together with: PA 300 µg |  | tissue uptake | 0.2 ± 0.2 %ID/g |
| Cc1ccc(CNC(=O)Cn2cc(CSc3nc4ccccc4[nH]3)nn2)cc1 | Caco-2 | MTT |  | 500 ppm |  | viability | 9.13% |
| Cc1c(-c2ccc(N3CCc4cccc(C(=O)Nc5nc6ccccc6s5)c4C3)nc2C(=O)O)cnn1CC12CC3(C)CC(C)(C1)CC(OCCNCC[C@H](O)CO)(C3)C2 |  |  | anaesthetized male beagle dog | iv infusion, 0.3 mg/kg/min, 60 min |  | plasma concentration | 5.35 ng/mL and 3.34 ng/mL |
| COc1cc2ncnc(Nc3ccc(Oc4ccccc4)cc3C)c2cc1OC | MeWo (NF1) | resazurin |  | 0.1 µM, 72 h, together with: trametinib 0 nM |  | viability | 99.7% |
| COc1cnc2cccc(N3CCc4c(cc(Cn5ccnc5C)cc4-c4cn(C)nc4C(F)(F)F)C3=O)c2c1 | RERFGC1B | cell growth |  | 120 h |  | EC50 | 3.14 µM |
| CC1(C)CCC(CN2CCN(c3ccc(C(=O)NS(=O)(=O)c4ccc(NCC5CCOCC5)c([N+](=O)[O-])c4)c(Oc4cnc5[nH]ccc5c4)c3)CC2)=C(c2ccc(Cl)cc2)C1 | mouse BMDM | CellTiter-Glo |  | concentration not given |  | viability | 11.9% and 12.8% |
| Cc1cccc(-c2[nH]c(CNc3ccccc3F)nc2-c2ccc3ncnn3c2)n1 | MM1.S pomalidomide-resistant | XTT |  | 1.5 µM | reference: untreated | viability | 45% |
| COc1ccc(-n2nc(C(C)=O)s/c2=N\N=C(/C)c2ccc(NC(=O)c3ccc(C)cc3)cc2)cc1 | HepG2 |  |  | 1.25 µM |  | viability | 13.4% |
| Nc1cccc2c1C(=O)N(C1CCC(=O)NC1=O)C2=O (stereo not drawn) | MM1.S | XTT |  | 0.2 µM |  | viability | 86% and 61% and 59% |
| COc1ccc(-n2nc(C(C)=O)s/c2=N\N=C(/C)c2ccc(NC(=O)c3ccccc3)cc2)cc1 | MCF7 |  |  | 2.5 µM |  | viability | 2.54% |
| Nc1ncnc2c1ncn2[C@@H]1O[C@H](CO)[C@@H](O)[C@H]1O | activated human T cells |  |  | 100 nM, 72 h | higher = more viable cells | viability | 81.3 a.u. and 82.9 a.u. and 86 a.u. |
| Cn1cc(-c2ccc(-c3cncc(Cl)c3N3CCC4(CCNC4=O)CC3)cc2)cn1 | COLO 205 | gene expression, microarray, measured: TNFRSF12A mRNA |  | concentration not given, 2 h | reference: untreated cells | log2 fold change | 2.46 |
